# Results of several laboratories.
# Numbered parts are unrelated; each lists some results of a single study. Changes are numbered by the printed parent chain.

# Set 1 — target: DDIT3, bZIP domain (human); method: DHFR protein complementation; sample: yeast; reference: wild-type JUN-FOS pair; direction: higher = stronger binding
# Notes: single substitutions, most at no-binding floor
# Starting sequence: JUN, bZIP domain (human); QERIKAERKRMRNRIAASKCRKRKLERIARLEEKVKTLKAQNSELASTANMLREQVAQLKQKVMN; partner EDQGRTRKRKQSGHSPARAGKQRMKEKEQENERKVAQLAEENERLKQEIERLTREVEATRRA
Substitution,binding fitness [natural log]
A49D,-1.37
K39R,0.115
R53V,-0.615
A40L,-0.0413
I28H,-0.125
T48Y,0.0065
M51D,0.0734
K39S,0.0929
L45N,-1.09
S47R,0.113
A57V,-0.022
A49W,-0.546
I28Q,-0.0181
M51G,-0.0357
Q55W,-0.204
E44H,-0.0667
L38I,-0.945
L31F,-0.452
N42C,-0.982
R53Q,-0.227
A40Y,-0.213
Q41T,-0.146
A40T,0.0681
I28L,0.0679
E44G,-0.351

# Set 2 — method: competition protein-binding microarray; form: double-stranded DNA, one strand shown; sample: in vitro; concentration: 2 µM; with: Cbf1 competitor, 0.05 µM; direction: higher = stronger binding; shared flanks, not repeated: … GTCTTGATTCGCTTGACGCTGCTG
# Target: Phosphate system positive regulatory protein PHO4, full length, GST-tagged (PHO4, Saccharomyces cerevisiae, UniProt P07270, residues 1-312)
# Notes: whole 60-bp probe, lowest competitor level
# Construct (chain): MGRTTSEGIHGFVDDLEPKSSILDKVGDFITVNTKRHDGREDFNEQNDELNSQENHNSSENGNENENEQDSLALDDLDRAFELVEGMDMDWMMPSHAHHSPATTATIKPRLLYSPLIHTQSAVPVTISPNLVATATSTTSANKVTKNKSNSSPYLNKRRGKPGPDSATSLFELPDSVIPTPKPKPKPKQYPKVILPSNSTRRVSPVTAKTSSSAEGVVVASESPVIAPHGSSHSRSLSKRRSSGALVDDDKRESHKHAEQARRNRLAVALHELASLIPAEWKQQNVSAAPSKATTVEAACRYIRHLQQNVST
Oligonucleotide,fluorescence intensity [a.u.]
AGCCCGCTTCCCGACCACGTGGAGGAACCCTCCCCA,18200
CGTCCTAGCGATTGATGGGTGGGTGCCATGAGGAAG,6490
GATGATGTGCTTGTCATCGTGGGTAACTTCACCAGC,9310
TGTAAATAACCGTGGAAGAATTTGTATTATCATCGT,6990
GTCTTGTCTCATTGCCAGGTGGGTGTCCCCACTTCA,6080
TCTCAATTATTGACTCACATGCCTCCTGGTAATACG,8440
CGTCCTAGCGATTGACCTGTGGGTGCCATGAGGAAG,6210
AATTGGTAAAACCATCACGTTTATGTTTTATTAAAA,12000
TAGTCTGCGGAGAGCAACGTGCAAAAACTAAAGGTA,12300
CTTTCCGGTTCGGGCCAGGTGACGGAAATCGTTCTG,3340
GAGAAATAGTCATCGTTTTCAACGGAAGCTGAAATA,3720
CTGGGCCCGGGACCCCACGTGGGACGCGCGAGGACC,16500
CCTTTGGTTTAGATGCACGTGTTGACGACATGAAAG,17600
TAGAGGAAAGAAAGAAACGTGGGTAAAACAGGGGCC,11900
CCGCTGCTCGCCGGCCACGTGCGCAGCCTGCAGGAG,14200
ACTGTTAAGAACCGTCACGTCTTCCTTTGGCTTTGA,5330
GTAGCAGAGAAAATCCACGTTTGGGCCGCGATGGCA,7960
GTCTTGTCTCATTTTCACGTGACTTTCCCCACTTCA,9880
AGCTTCCGAGACTTTTTCGTGATGGGAGATAGATGC,3520

# Set 3 — method: universal PBM; form: double-stranded DNA, one strand shown; sample: in vitro; concentration: 600 nM; direction: higher = stronger binding
# Target: Sal-like protein 4, full length isoform A (SALL4, Homo sapiens, UniProt Q9UJQ4, residues 1-1053)
# Chain of UniProt Q9UJQ4 (whole entry, looked up): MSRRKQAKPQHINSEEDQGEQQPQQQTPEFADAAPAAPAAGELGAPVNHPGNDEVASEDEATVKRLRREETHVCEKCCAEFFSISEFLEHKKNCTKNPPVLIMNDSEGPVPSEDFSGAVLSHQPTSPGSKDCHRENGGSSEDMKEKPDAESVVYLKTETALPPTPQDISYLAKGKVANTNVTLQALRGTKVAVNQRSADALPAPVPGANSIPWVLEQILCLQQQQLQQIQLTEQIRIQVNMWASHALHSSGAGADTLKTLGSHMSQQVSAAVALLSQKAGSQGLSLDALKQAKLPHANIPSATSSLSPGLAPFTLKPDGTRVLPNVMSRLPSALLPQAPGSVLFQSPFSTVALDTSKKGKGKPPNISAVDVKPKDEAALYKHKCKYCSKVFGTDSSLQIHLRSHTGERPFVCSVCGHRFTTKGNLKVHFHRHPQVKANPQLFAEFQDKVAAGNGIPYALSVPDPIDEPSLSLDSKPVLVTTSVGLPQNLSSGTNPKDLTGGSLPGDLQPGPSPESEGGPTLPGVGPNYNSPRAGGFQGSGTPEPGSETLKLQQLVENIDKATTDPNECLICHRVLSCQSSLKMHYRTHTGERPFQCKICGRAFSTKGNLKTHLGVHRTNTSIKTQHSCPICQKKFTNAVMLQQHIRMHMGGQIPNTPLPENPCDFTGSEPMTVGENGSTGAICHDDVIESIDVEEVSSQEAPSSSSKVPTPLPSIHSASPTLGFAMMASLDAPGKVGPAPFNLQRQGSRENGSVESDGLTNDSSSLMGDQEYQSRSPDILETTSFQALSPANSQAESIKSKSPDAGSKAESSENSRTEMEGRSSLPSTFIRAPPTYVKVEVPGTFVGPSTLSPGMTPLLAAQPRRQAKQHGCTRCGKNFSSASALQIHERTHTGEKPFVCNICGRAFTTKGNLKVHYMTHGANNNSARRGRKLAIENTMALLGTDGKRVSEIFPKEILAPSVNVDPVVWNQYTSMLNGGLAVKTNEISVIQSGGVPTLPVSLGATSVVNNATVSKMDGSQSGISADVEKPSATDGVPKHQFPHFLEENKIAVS
# Notes: 8-mer, flanks averaged, mean of replicates
Oligonucleotide,E-score
TGCGTACA,0.0898
CTGAAGTC,0.00462
TCAGCTGA,0.14
AGCTGCCA,-0.146
GCCATTGA,0.0507
AGTATAGA,0.217
AGGCTAAT,0.111
CTACCCGA,-0.112
CGAACAAA,0.0971
CAGTATTC,0.121
ACGCAATA,0.241
ATGGCCAG,0.0375
CACTCGCG,-0.165
GGCCGGAA,-0.165
GCCTGCGA,-0.263
AGGTCCAC,-0.247
AGGATAAC,0.0483
CGTCCTTC,0.0592
GCCACTTA,0.0324
CCTAGCTC,-0.192
AGGCTCAT,-0.154
CTGAACTC,-0.106
GACATACC,-0.0587
CTGGGCGA,-0.235
CTCCGTTA,0.088

# Set 4 — method: DHFR PCA, deep sequencing; sample: yeast; with: (+)-ABA 58 µM; reference: wild-type fitted maximum; direction: higher = stronger binding
# Target: ABI1, truncated, D143A, DHFR fusion (Arabidopsis thaliana)
# Notes: methotrexate growth selection, single substitutions
# Starting sequence: PYL1, truncated, DHFR fusion (Arabidopsis thaliana); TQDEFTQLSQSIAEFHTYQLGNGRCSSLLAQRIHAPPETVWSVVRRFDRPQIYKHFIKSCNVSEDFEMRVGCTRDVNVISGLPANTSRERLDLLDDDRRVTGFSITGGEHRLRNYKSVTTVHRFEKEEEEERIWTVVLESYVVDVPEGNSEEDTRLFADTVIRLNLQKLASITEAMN; partner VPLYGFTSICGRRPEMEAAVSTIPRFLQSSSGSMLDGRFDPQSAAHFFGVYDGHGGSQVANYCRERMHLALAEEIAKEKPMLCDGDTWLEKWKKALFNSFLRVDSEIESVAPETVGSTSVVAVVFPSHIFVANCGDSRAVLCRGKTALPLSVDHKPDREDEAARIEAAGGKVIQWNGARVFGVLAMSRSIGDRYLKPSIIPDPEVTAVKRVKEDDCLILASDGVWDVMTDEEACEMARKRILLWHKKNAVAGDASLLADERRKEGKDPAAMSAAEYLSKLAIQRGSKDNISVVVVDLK
Substitution,relative binding score [%]
T1W,80.5
F103G,-2.86
R46C,82.7
R45Y,-1.61
A170F,-18.5
T6L,89
D48Y,7.89
R163G,70.6
Q2N,85.2
V40E,-9.73
L28R,68.4
E67K,82.3

# Set 5 — target: CCNA2, cyclin fold, Cln2 fusion (human); method: yeast growth competition, sequencing; sample: yeast; notes: strong parent motif; reference: not given; direction: higher = stronger binding
# Starting sequence: SAMHD1 docking peptide (human); ASKSRVQLFKDDP; partner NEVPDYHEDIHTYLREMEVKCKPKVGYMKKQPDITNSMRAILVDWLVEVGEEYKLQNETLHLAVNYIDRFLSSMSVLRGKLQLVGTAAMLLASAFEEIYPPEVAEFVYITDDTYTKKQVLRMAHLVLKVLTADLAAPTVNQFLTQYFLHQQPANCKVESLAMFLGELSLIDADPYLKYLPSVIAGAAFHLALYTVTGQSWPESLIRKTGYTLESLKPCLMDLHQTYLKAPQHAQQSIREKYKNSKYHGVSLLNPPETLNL
Substitution,normalised enrichment score
ASKSRVQLFKDTP [D12T],2.85
ASKSRVQLKKDDP [F9K],0.311
ASKSRVQLWKDDP [F9W],0.863
AAKSRVQLFKDDP [S2A],2.79
AIKSRVQLFKDDP [S2I],3.55
ASKSEVQLFKDDP [R5E],-0.259
ASFSRVQLFKDDP [K3F],1.1
AFKSRVQLFKDDP [S2F],3.38
ASKSRVQVFKDDP [L8V],0.232
ASKSAVQLFKDDP [R5A],0.43
ASKSRVQLFKVDP [D11V],1.8
ASKSRVLLFKDDP [Q7L],0.606
ASKSRVQLFEDDP [K10E],1.12
ASKSRVQLFADDP [K10A],2.24
ASKSRVQLFCDDP [K10C],1.97
ASKSRVQLFKDGP [D12G],2.56
ASKSRVQFFKDDP [L8F],0.113
ASKSRVQLFKDLP [D12L],2.8
ASKSRVQNFKDDP [L8N],0.401
ASKSRVQLFKHDP [D11H],1.88
ANKSRVQLFKDDP [S2N],2.66
ASKSRVQHFKDDP [L8H],-0.101
ASSSRVQLFKDDP [K3S],1.96
ASKSRVQEFKDDP [L8E],0.16
ASKSRVQLFQDDP [K10Q],2.05

# Excerpt of the above (set 1):
Substitution,binding fitness [natural log]
A49D,-1.37
L45N,-1.09
T48Y,0.0065
R53Q,-0.227
A40Y,-0.213
L38I,-0.945
K39R,0.115
I28Q,-0.0181
A57V,-0.022
N42C,-0.982
Q55W,-0.204
M51G,-0.0357
